Measured values gathered from unrelated publications.
Compare with care: the assays were run in different laboratories. “And” joins repeats or separate records; there may be more than shown. ± marks the error that the study gave.

Nc1ccn([C@@H]2O[C@H](CO)[C@@H](O)C2(F)F)c(=O)n1
Tmax, median (measured: dFdU; human, plasma; intravenous, 800 mg/m^2, added: after paricalcitol): 1 h

C[C@@H](N)C1CCN(S(=O)(=O)c2cccc3cnccc23)CC1
CL/F (healthy volunteers, plasma; oral, 150 mg, fed): 3700 L/h

O=C(O)CCC(=O)O.[2H]C([2H])([2H])Oc1cc(C)c2[nH]ccc2c1CN1CC[C@@H](C2CC2)C[C@H]1c1ccc(C(=O)O)cc1
subjects with TEAE Diarrhea (multiple ascending dose; healthy Chinese subjects; 50 mg twice daily): 0%

COc1ccc2c(c1)CCc1c(C(=O)NCCc3nc4cc(C)ccc4[nH]3)n[nH]c1-2
HC50 (haemolysis; sheep erythrocytes; 1 h, pH 7.5): > 128 µg/mL

N#Cc1ccc2c(c1)[C@H]1CCCN(C(=O)c3ccc4[nH]cnc4c3)[C@H]1C2
SHBG level (human males; 240 mg, end of trial): 24.8 nmol/L

C[C@H](CCC(=O)O)[C@H]1CC[C@H]2[C@@H]3[C@H](O)C[C@@H]4C[C@H](O)CC[C@]4(C)[C@H]3CC[C@]12C
daily mean concentration (human, plasma; endogenous baseline diurnal): 427 ± 101 nM

CC1(c2cc(F)ccc2F)CC1NC(=O)NCC1(C(=O)O)CCCC1 (stereo not shown)
DLS scattered light intensity (colloidal aggregate formation, dynamic light scattering; 50 mM potassium phosphate buffer; 200 µM, pH 7.0, 1% DMSO; higher = more aggregation): 1.66e+06 counts/s

CC(C)[C@H](N)C(=O)NCCCS(=O)(=O)O
AUC(0-12) (human both sexes, plasma; oral, 256.5 mg once daily, day 1, fasted capsule): 9830 ng·h/mL

CCN1CCN(C(=O)N[C@@H](C(=O)N[C@@H]2C(=O)N3[C@@H]2SC(C)(C)[C@@H]3C(=O)O)c2ccccc2)C(=O)C1=O
deviation from nominal concentration (human whole blood; concentration not given, 24 h, 4 °C): -4.9%

CN1CCN(c2ccc(OC(F)(F)F)c(Nc3ncc4c(n3)-c3c(c(C(N)=O)nn3CCO)CC4)c2)CC1
plasma concentration (LC-MS/MS; human, plasma; oral, 12 mg/m2, 2 h post-dose): 61.2 ng/mL and 89.5 ng/mL

C=CC(=O)Nc1cc(Nc2nccc(-c3cn(C)c4ccccc34)n2)c(OC)cc1N(C)CCN(C)C
recovery (storage stability; human dried blood spots; 5 h, on ice, medium QC level): 81.1%

CNC(=O)c1cccc(-c2ccc(O[C@H]3O[C@H](CO)[C@@H](O)[C@H](O)[C@@H]3O)c(C)c2)c1
terminal half-life (Sprague-Dawley rat, male, plasma; oral, 10 mg/kg): 2.85 h

Cl.[2H]C([2H])([2H])CC(=O)c1cnc(NC(=O)C2CC2)cc1Nc1cccc(-c2ncn(C([2H])([2H])[2H])n2)c1OC
CL/F (geometric mean; human; 40 mg twice daily, day 7, fed, liquid, multiple dose): 10.8 L/h

Cc1ccc([C@@H]2O[C@H](CO)[C@@H](O)[C@H](O)[C@H]2O)cc1Cc1ccc(-c2ccc(F)cc2)s1
urinary chloride excretion change (Japanese type 2 diabetes patients; 200 mg, day 5, 24 h urine collection; relative to: baseline): -14.8 mEq

COCCOc1cnc2ccn([C@H](C)c3nnc4c(F)cc(-c5cnn(C)c5)cn34)c(=O)c2c1
Ctrough (patients, plasma; oral, 100 mg once daily, day 28 24 h postdose): 120 ng/mL

CC(C)(C(=O)N1CCOc2c(C#N)cncc2C1)C(F)F
subjects with adverse event (measured: chest discomfort; human; oral, 15 mg twice daily, 14 days, multiple ascending dose): 12.5%

COc1c(N2C[C@@H]3CCCN[C@@H]3C2)c(F)cc2c(=O)c(C(=O)O)cn(C3CC3)c12
QTc interval (male Hartley guinea pig, anaesthetized; intravenous, 5 mg/kg, baseline before infusion): 282 ± 0.3 ms

Cc1noc(C)c1Cn1cc(N2C(=O)CN(Cc3cccc(O)c3)C2=O)cn1
remaining parent (pooled human liver microsomes; 1 µM, 30 min, pH 7.4): 90 % peak area

CCN1/C(=C/C(C)=O)Sc2ccc(F)cc21
heart rate (cynomolgus monkey; oral, 10 mg/kg, 0.5 h post-dose): 124 ± 21 beats/min

O=C(Nc1nnc(Cl)s1)c1ccco1
HC50 (haemolysis; sheep erythrocytes; 1 h, pH 7.5): > 128 µg/mL

CCc1cc(C(=O)NC)c2nccc(N3CCc4c(cc(Cn5ccnc5)cc4-c4cn(C)nc4C(F)(F)F)C3=O)c2c1
blood HDW change (Sprague Dawley rats; oral, 100 mg/kg twice daily, 7 days; relative to: vehicle): 13%

CC(=O)c1cc(NS(=O)(=O)c2cc(Cl)cc(Cl)c2O)ccc1F
DLS scattered light intensity (colloidal aggregate formation, dynamic light scattering; 50 mM potassium phosphate buffer; 200 µM, pH 7.0, 1% DMSO; higher = more aggregation): 526000 counts/s

O=C(Nc1nc2cccc(-c3ccc(CN4CCS(=O)(=O)CC4)cc3)n2n1)C1CC1
treatment-emergent adverse events (measured: ear and labyrinth disorders; human rheumatoid arthritis patients; oral, 30 mg once daily, 4 weeks, regardless of relatedness): 0%

FC(F)(F)c1ccc(CNc2ccc(Cc3c[nH]c4ncc(Cl)cc34)cn2)cn1
dry mouth incidence (patients with advanced solid tumours; oral, 1000 mg/day, TGCT cohort, all grades): 10%

Cc1ccc(O)c(-n2nc3ccccc3n2)c1
daily dermal exposure dose (human aged 21-60 years; concentration not given, foundation, 95th percentile): 496 ng/kg/day

COc1ccc2c(c1)CN(C(=O)CCN1CCC(Cc3ccccc3)CC1)CC[S@@+]2[O-]
heart rate (telemetry; conscious dog; intravenous, 2 mg/kg, 4 h): 69 ± 13 beats/min

CC(C)C[C@H](NC(=O)CNC(=O)c1cc(Cl)ccc1Cl)B(O)O
treatment-emergent adverse events (measured: Hypokalaemia; human newly diagnosed multiple myeloma; oral, dose not given, maintenance, grade 3, onset cycle 17 or later): 0%

O=C(Nc1cnccc1Cl)N1CCN(Cc2ccc3c(c2)OC(F)(F)O3)CC1
adverse event incidence (measured: Dizziness; human healthy young men; 10 mg, multiple dose): 0%

Cn1ncc(S(=O)(=O)NC(c2ccc(Cl)cc2)c2cccs2)c1C(=O)O (stereo not shown)
DLS scattered light intensity (colloidal aggregate formation, dynamic light scattering; 50 mM potassium phosphate buffer; 200 µM, pH 7.0, 1% DMSO; higher = more aggregation): 199000 counts/s

CCN1CCN(Cc2ccc(NC(=O)c3ccc(C)c(NC(=O)c4cncc(-c5cccs5)c4)c3)cc2C(F)(F)F)CC1
mean plasma concentration (LC-MS/MS; C57BL/6 mouse, plasma; intraperitoneal, 10 mg/kg single dose, 1 h): 327 ng/mL

O=c1[nH]c(=O)n([C@H]2C[C@H](O)[C@@H](CO)O2)cc1CCCC[18F]
blood concentration (CD-1 nu/nu male mice, RG2 tumour, blood; intravenous, dose not given, 2 h, co-injection): 0.24 ± 0.06 %ID/g

Cc1ccc(Sc2ccccc2N2CCNCC2)c(C)c1
pyrexia incidence (healthy adult men; oral, 20 mg single dose, treatment-emergent adverse events): 0%

CN(CC#N)C(=O)C[C@H](Nc1nc2ccccc2[nH]1)c1cccc(C(F)(F)F)c1
apparent clearance (human; intravenous infusion, 5 mg/kg, 1 mg/mL formulation): 17.2 ± 4.71 L/h

CN1C[C@H](COc2nccc3c(NCc4ccco4)cc(Cl)nc23)OC1=O
effect on QTc (rabbit, isolated Langendorff heart; dose not given): negative

COc1ccc([C@@H](O)c2cc(-c3ncnc4cc(N5CCOCC5)ccc34)c(F)cc2Cl)nn1
asthenia TEAE incidence (locally advanced rectal cancer patients; 50 mg, added: capecitabine and radiotherapy): 0%

COc1ccc2c(=O)n(C)c(-c3ccccc3)nc2c1
tissue concentration (male Sprague-Dawley rat, small intestine; oral, 30 mg/kg, 4 h): 12400 ng/g

O=C(O)CC[C@H](NC(=O)N[C@@H](CCCCNC(=O)[C@H](Cc1ccc2ccccc2c1)NC(=O)[C@H]1CC[C@H](CNC(=O)CN2CCN(CC(=O)O)CCN(CC(=O)O)CCN(CC(=O)O)CC2)CC1)C(=O)O)C(=O)O
tumour-to-tissue ratio (male BALB/c nude mice, LS174T-PSMA xenografts, kidney; intravenous, 0.3 nmol, 2 h, radiolabelled (111In or 99mTc); relative to: tumour over kidney): 3 ± 1.5

O=C1NCCc2nc(OCc3cccc(F)c3)ccc21
Irwin test score (measured: Lacrimation; Sprague-Dawley rat male; oral, 100 mg/kg, 4 h; direction not given): 0

C=CCN1CC(=O)N2[C@@H](Cc3ccc(O)cc3F)C(=O)N(Cc3cccc(N4CC(N5CCN(CC)CC5)C4)n3)C[C@@H]2N1C(=O)NCc1ccccc1
treatment-related adverse events (measured: Vomiting; advanced solid tumour patients; all doses, expansion part, any grade): 73.7%

O=C(CCCN1CC=C(n2c(=O)[nH]c3ccccc32)CC1)c1ccc(F)cc1
QTc interval (male Hartley guinea pig, anaesthetized; intravenous infusion, 0.3 mg/kg, 10 min infusion, post-infusion): 385 ± 0.6 ms

CC(C)C(=O)O[C@H]1[C@H](C)OC(=O)[C@@H]1Cc1ccccc1
Freundlich KF (light clay soil; pH 7.3, OC 5.6%): 3.3 mL/g

C=CC(NS(=O)(=O)c1cccc(Cl)c1O)C1CCC1 (stereo not shown)
DLS scattered light intensity (colloidal aggregate formation, dynamic light scattering; 50 mM potassium phosphate buffer; 200 µM, pH 7.0, 1% DMSO; higher = more aggregation): 2.89e+08 counts/s

Cn1cc(-c2ccc(-c3cncc(Cl)c3N3CCC4(CCNC4=O)CC3)cc2)cn1
fold change in expression (COLO 205; microarray, measured: C1orf61; concentration not given, 6 h, gene set CROC-4; relative to: untreated cells): -2.7

O=C(O)CSc1nnc(Br)n1-c1ccc(C2CC2)c2ccccc12
body weight (KM mouse, chronic hyperuricaemia model; dose not given, day 21): 31 g and 35.2 g and 39 g and 37.2 g and 32.4 g and 34.6 g

NC1(C(=O)N[C@@H](CCO)c2ccc(Cl)cc2)CCN(c2nc[nH]c3nccc2-3)CC1
incidence of SIRS (metastatic CRPC patients; 320 mg b.i.d., grade 3 to 4, treatment-related, added: enzalutamide 160 mg daily): 0%

COc1cc(C(=O)N2CCC3(CC2)CC(=O)c2c(cnn2C(C)C)C3)cc(-c2ccc(C(=O)O)cc2)n1
percentage change from baseline (measured: direct LDL cholesterol; human, fasting serum; 100 mg every 12 h, day 13, adjusted geometric mean; relative to: baseline): -10.8%

O=S(=O)(NCC(O)c1c(F)cccc1Cl)c1cccc(Cl)c1O (stereo not shown)
DLS scattered light intensity (colloidal aggregate formation, dynamic light scattering; 50 mM potassium phosphate buffer; 200 µM, pH 7.0, 1% DMSO; higher = more aggregation): 208000 counts/s

NC[C@@]1(CC(=O)O)[C@@H]2CC[C@H]3C[C@@H]2[C@@H]1C3
unbound AUC(0-inf) (human, moderate renal impairment, plasma; dose not given, geometric mean): 3510 ng·h/mL

Cc1ccc(C(=O)N(CCCN)C(c2nc3snc(C)c3c(=O)n2Cc2ccccc2)C(C)C)cc1 (stereo not shown)
patients with adverse event (mucosal inflammation grade ≥3 (CTCAE); human patients; intravenous, 7 mg/day): 0%

COc1c(OCCCN2CCOCC2)ccc2c1N=C(NC(=O)c1cnc(N)nc1)N1CCN=C21
serious adverse events (relapsed iNHL patients; intravenous, 60 mg): 44.7%

[18F]c1ccc(-c2ccc3c(c2)[nH]c2ccncc23)cn1
SUV (ex vivo biodistribution; APP/PS1 mouse, AD model, muscle; intravenous, 30 min): 0.209 ± 0.04

CCCCc1ccc(-c2ccc(C#N)cc2)cc1
concentration (measured: compound; human pregnant women, male fetuses, cord serum; dose not given, paired maternal-cord samples, mean): 0.24 ng/mL

Cc1cc(-c2nnc(N)nc2-c2ccc(F)cc2)cc(Cl)n1
patients with treatment-related adverse events (measured: Vomiting; human phase Ia/Ib colorectal cancer, immunotherapy-naive; oral, dose not given): 32%

Cc1cc(-c2nccc3c2ccn3CC(=O)Nc2ccc(-c3cnccn3)cn2)ccn1
subjects with Photophobia adverse event (human; 20 mg once daily, multiple ascending dose): 0%

CCOc1c([C@H](C)n2nc(C)c3c(N)ncnc32)cc(Cl)c(F)c1[C@@H]1CNC(=O)C1
ECG observations (measured: QTcF change above 60 ms; previously treated B-cell malignancy; oral, 30 mg once daily, baseline QTcF ≤450 ms; relative to: baseline): 0%

Cn1c(C(F)(F)F)cc(=O)n(-c2cc(Oc3cccnc3OCC(=O)O)c(Cl)cc2F)c1=O
AUC(0-24 h) (Crl:CD(SD) rats, female, plasma; oral diet, 50 ppm in diet, day 1, 90-day toxicity study): 1440 ng·h/mL

CCO[C@H]1CCN(Cc2c(OC)cc(C)c3[nH]ccc23)[C@H](c2ccc(C(=O)O)cc2)C1
incidence of nasopharyngitis (PNH patients, active haemolysis; oral, 50 mg, 4 weeks, treatment): 0%

O=C(c1nc2n(n1)[C@H](c1ccccc1)C[C@@H]2F)C1CC1
fraction excreted in urine 0-72 h (human; 25 mg single dose): 0.1 to 0.3%

Excerpt of the above:
Cc1cc(-c2nccc3c2ccn3CC(=O)Nc2ccc(-c3cnccn3)cn2)ccn1
subjects with Photophobia adverse event (human; 20 mg once daily, multiple ascending dose): 0%

Cc1noc(C)c1Cn1cc(N2C(=O)CN(Cc3cccc(O)c3)C2=O)cn1
remaining parent (pooled human liver microsomes; 1 µM, 30 min, pH 7.4): 90 % peak area

O=C(Nc1nnc(Cl)s1)c1ccco1
HC50 (haemolysis; sheep erythrocytes; 1 h, pH 7.5): > 128 µg/mL

COCCOc1cnc2ccn([C@H](C)c3nnc4c(F)cc(-c5cnn(C)c5)cn34)c(=O)c2c1
Ctrough (patients, plasma; oral, 100 mg once daily, day 28 24 h postdose): 120 ng/mL

O=C(O)CSc1nnc(Br)n1-c1ccc(C2CC2)c2ccccc12
body weight (KM mouse, chronic hyperuricaemia model; dose not given, day 21): 31 g and 35.2 g and 39 g and 37.2 g and 32.4 g and 34.6 g

Cc1ccc(C(=O)N(CCCN)C(c2nc3snc(C)c3c(=O)n2Cc2ccccc2)C(C)C)cc1 (stereo not shown)
patients with adverse event (mucosal inflammation grade ≥3 (CTCAE); human patients; intravenous, 7 mg/day): 0%
